Measured values of several laboratories.
A part holds a random share of what one study measured. “And” joins repeats or separate records; there may be more than shown.
Sequence of UniProt P07949 (whole entry, unmodified, looked up): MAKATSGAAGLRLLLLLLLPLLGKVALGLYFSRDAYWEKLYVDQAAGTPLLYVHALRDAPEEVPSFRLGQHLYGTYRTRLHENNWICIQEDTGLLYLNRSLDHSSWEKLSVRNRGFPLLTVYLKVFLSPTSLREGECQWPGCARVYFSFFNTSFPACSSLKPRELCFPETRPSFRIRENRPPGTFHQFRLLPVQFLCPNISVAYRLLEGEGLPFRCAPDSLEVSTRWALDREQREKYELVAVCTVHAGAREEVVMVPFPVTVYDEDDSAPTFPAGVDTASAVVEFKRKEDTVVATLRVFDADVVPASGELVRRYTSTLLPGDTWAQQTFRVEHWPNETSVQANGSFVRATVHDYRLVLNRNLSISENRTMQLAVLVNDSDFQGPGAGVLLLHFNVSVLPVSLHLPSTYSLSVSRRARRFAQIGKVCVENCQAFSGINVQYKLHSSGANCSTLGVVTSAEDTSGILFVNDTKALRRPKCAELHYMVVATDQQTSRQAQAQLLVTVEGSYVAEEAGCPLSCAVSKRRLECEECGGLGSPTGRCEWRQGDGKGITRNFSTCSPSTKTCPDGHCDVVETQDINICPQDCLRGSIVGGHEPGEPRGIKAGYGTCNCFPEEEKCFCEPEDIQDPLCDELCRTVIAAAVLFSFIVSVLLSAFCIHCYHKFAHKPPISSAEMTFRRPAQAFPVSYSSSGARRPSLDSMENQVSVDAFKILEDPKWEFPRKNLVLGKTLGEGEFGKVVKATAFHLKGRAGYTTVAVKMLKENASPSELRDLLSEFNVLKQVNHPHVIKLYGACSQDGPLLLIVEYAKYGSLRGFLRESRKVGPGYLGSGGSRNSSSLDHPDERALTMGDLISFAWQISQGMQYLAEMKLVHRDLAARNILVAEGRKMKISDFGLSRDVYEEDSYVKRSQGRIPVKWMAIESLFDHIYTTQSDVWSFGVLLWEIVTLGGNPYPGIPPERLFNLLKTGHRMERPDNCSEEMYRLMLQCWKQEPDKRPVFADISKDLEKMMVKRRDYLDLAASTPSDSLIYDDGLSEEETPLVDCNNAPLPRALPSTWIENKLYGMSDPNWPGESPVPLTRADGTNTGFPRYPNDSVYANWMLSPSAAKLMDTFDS
Sequence of UniProt O15530 (whole entry, looked up): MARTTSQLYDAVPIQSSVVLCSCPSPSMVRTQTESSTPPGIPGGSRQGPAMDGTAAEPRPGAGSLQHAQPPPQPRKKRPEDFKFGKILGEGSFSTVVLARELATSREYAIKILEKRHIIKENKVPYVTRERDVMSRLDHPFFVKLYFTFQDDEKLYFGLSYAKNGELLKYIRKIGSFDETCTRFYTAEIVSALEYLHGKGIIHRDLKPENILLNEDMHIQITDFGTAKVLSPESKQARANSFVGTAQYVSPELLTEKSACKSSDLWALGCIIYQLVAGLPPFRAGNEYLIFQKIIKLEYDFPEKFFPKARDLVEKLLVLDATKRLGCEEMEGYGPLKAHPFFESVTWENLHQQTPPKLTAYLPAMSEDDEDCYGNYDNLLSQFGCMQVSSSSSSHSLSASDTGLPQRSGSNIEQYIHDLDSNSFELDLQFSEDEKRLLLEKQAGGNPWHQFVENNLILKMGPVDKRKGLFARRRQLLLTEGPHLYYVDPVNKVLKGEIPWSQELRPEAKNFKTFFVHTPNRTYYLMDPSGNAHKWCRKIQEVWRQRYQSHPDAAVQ
Sequence of UniProt P10721 (whole entry, unmodified, looked up): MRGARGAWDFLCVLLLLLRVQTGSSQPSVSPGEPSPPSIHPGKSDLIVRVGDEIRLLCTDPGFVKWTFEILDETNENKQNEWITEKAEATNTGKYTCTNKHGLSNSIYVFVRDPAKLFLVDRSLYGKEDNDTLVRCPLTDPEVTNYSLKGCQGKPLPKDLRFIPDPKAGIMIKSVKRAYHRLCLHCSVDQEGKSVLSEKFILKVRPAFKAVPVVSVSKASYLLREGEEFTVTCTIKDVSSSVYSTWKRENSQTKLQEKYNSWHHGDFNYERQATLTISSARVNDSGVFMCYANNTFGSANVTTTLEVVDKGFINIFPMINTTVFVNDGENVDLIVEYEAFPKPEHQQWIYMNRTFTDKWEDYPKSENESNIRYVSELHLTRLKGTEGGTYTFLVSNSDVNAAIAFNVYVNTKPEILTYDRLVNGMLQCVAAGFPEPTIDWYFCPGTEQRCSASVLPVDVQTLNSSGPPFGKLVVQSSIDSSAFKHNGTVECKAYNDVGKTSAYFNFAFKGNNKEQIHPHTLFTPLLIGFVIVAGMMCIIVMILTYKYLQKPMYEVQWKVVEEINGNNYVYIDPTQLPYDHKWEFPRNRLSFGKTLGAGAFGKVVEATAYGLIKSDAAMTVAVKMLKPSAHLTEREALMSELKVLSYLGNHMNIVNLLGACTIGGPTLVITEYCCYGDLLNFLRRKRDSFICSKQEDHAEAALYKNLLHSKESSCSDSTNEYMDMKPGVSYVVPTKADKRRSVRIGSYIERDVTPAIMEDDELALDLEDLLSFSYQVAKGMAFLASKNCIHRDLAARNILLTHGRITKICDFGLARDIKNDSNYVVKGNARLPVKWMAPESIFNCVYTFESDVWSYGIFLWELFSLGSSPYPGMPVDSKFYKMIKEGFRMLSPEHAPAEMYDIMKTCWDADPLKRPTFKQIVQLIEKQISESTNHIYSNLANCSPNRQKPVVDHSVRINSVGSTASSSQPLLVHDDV
Sequence of UniProt Q9H3Y6 (whole entry, looked up): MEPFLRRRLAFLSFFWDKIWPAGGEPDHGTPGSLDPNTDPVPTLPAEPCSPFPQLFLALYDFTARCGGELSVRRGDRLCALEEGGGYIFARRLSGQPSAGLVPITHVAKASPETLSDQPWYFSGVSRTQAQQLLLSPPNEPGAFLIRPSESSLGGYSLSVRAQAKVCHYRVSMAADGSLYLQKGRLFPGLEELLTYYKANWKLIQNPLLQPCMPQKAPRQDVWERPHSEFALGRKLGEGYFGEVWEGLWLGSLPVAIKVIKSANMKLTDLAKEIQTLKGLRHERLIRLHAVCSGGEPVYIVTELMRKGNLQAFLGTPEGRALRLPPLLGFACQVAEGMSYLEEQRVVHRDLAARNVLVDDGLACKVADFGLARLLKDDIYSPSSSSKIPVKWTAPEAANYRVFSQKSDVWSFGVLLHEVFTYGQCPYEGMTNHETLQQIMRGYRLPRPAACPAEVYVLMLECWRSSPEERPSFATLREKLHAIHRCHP
Sequence of UniProt P0C264 (whole entry, looked up): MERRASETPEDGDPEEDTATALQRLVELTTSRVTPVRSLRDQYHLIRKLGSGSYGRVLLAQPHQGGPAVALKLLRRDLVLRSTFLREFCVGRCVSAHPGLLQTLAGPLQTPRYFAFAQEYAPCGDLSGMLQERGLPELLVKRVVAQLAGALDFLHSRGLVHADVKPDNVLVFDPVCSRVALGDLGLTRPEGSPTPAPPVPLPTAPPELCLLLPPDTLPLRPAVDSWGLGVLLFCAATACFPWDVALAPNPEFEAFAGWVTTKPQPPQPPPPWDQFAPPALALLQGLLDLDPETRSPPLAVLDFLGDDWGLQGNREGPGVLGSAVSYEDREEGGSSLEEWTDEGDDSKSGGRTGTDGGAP
Sequence of UniProt P11309 (whole entry, looked up): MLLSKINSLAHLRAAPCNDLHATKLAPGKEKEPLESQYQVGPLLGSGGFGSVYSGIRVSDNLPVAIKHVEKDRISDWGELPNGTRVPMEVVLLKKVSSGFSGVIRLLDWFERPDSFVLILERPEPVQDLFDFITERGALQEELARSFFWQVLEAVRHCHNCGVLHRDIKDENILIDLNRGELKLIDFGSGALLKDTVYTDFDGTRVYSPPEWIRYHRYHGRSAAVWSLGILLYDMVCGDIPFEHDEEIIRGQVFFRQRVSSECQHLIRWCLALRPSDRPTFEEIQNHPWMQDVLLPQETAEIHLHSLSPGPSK

Block 1 — effect on: cell-free assay; method: competition with immobilised ligand; tested at: 1 µM; endpoint: remaining binding
Structure (SMILES): O=C(NCc1ncc(C(F)(F)F)cc1Cl)c1ccc2c(c1)C1(CCS(=O)(=O)CC1)[C@H](C1CC1)N2S(=O)(=O)c1ccc(F)cc1
Tyrosine-protein kinase ABL1, non-phosphorylated (ABL1, Homo sapiens, UniProt P00519, Q252H): 100%
SRMS (Homo sapiens, UniProt Q9H3Y6): 71%
SBK3 (Homo sapiens, UniProt P0C264): 100%
EPHA3 (Homo sapiens, UniProt P29320): 100%
PDPK1 (Homo sapiens, UniProt O15530): 91%
PIK3CA (Homo sapiens, UniProt P42336, E545A): 89%
RET (Homo sapiens, UniProt P07949, V804L): 92%
KIT (Homo sapiens, UniProt P10721, L576P): 100%
EGFR (Homo sapiens, UniProt P00533): 95%
MAP3K1 (Homo sapiens, UniProt Q13233): 63%
MAPK10 (Homo sapiens, UniProt P53779): 88%
PIM1 (Homo sapiens, UniProt P11309): 100%

Block 2 — effect on: enzyme activity; mode: inhibitor; tested at: 0.5 µM; baseline: control; endpoint: remaining activity
Target: Receptor tyrosine-protein kinase erbB-2 (ERBB2, Homo sapiens, UniProt P04626)
O=C1C(Cl)=C(N2C(=O)CCC2=O)C(=O)c2ccccc21: 95.4%
c1ccc(-c2cnc(Nc3ccc(OCCN4CCCC4)cc3)s2)cc1: 101%
CCN(CC)CCNC(=O)c1c(C)[nH]c(/C=C2\C(=O)Nc3ccc(F)cc32)c1C: 105%
Cn1nc2c3c(cccc31)C(=O)c1ccccc1-2: 96.9%
CCOc1nc(NC(=O)Cc2cc(OC)ccc2OC)cc(N)c1C#N: 101%
Cc1cn(-c2cc(NC(=O)c3ccc(C)c(Nc4nccc(-c5cccnc5)n4)c3)cc(C(F)(F)F)c2)cn1: 104%
N#Cc1c(NC(=O)c2cccc3ccccc23)sc2c1CCCC2: 97.6%
C[C@@H]1CCN(C(=O)CC#N)C[C@@H]1N(C)c1ncnc2[nH]ccc12: 109%
CCN(CC)CCNC(=O)c1c(C)[nH]c(/C=C2\C(=O)Nc3ccc(Cl)cc32)c1C: 102%
Ic1cccc(CSc2nnc(-c3ccncc3)o2)c1: 99.6%
COc1cc2ncnc(Nc3ccc(O)c(Br)c3)c2cc1OC: 33.1%
Cc1nc2cc3nc(-c4cccs4)cnc3cc2n1C: 92%

Other studies, line by line
COc1ccc(-c2c(Nc3ccccn3)[nH]c3c(C4=CCCCC4)c(-c4ccccc4)nn3c2=O)cc1
Cmin (human, plasma; oral, 200 mg twice daily): 8900 ng/mL and 9580 ng/mL

Ic1ccc(Nc2nc(NCCN3CCOCC3)nc(N3CCOCC3)n2)cc1
mRNA level (Gaucher fibroblasts; qPCR, refers to: GBA1 mRNA; 1 µM, unit not given; baseline: vehicle): 0.684 and 1.58 and 1.06 and 1.12
